# Measurements gathered from unrelated publications.
# Protocols differ between the studies behind these lines.
SMILES,organism,assay,system,setting,MIC [mg/L]
Cc1c(CN(C)C(=O)/C=C/c2cnc3c(c2)CCC(=O)N3)oc2ccccc12,Escherichia coli,broth microdilution,MG1655,4% human serum albumin,> 32
CC[C@H](C)[C@H](NC(=O)[C@H](CCCCN)NC(=O)[C@H](CCC(=O)O)NC(=O)[C@H](CCCCN)NC(=O)[C@H](CO)NC(=O)[C@H](CCCCN)NC(=O)[C@H](CCCNC(=N)N)NC(=O)[C@H](Cc1ccccc1)NC(=O)[C@H](Cc1ccccc1)NC(=O)[C@H](CC(=O)O)NC(=O)CNC(=O)[C@H](CC(C)C)NC(=O)[C@@H](N)CC(C)C)C(=O)NCC(=O)N[C@@H](CCCCN)C(=O)N[C@@H](CCC(=O)O)C(=O)N[C@@H](Cc1ccccc1)C(=O)N[C@@H](CCCCN)C(=O)N[C@@H](CCCNC(=N)N)C(=O)N[C@H](C(=O)N[C@H](C(=O)N[C@@H](CCC(N)=O)C(=O)N[C@@H](CCCNC(=N)N)C(=O)N[C@H](C(=O)N[C@@H](CCCCN)C(=O)N[C@@H](CC(=O)O)C(=O)N[C@@H](Cc1ccccc1)C(=O)N[C@@H](CC(C)C)C(=O)N[C@@H](CCCNC(=N)N)C(=O)N[C@@H](CC(N)=O)C(=O)N[C@@H](CC(C)C)C(=O)N[C@H](C(=O)N1CCC[C@H]1C(=O)N[C@@H](CCCNC(=N)N)C(=O)N[C@H](C(=O)N[C@@H](CCC(=O)O)C(=O)N[C@@H](CO)C(=O)O)[C@@H](C)O)C(C)C)[C@@H](C)CC)C(C)C)[C@@H](C)CC,Micrococcus luteus,broth microdilution,ATCC 4698,"43 h, 37 °C, cation-adjusted Mueller-Hinton broth",4
N=C(N)c1ccc(OCCC(CCOc2ccc(C(=N)N)cc2)c2ccccc2)cc1 (stereo not drawn),Escherichia coli,,552100,"in combination, checkerboard, added: rifampicin",12.5
CO/N=C(\C(=O)N[C@@H]1C(=O)N2C(C(=O)O)=C(CSc3nc(=O)c(O)nn3C)CS[C@H]12)c1csc(N)n1,Neisseria gonorrhoeae,broth microdilution,WHO P,1.5 h,1
CCCCCOc1ccc(-c2ccc(-c3ccc(C(=O)N[C@H]4C[C@@H](O)[C@@H](OCC[N+](C)(C)C)NC(=O)[C@@H]5[C@@H](O)[C@@H](C)CN5C(=O)[C@H]([C@@H](C)O)NC(=O)[C@H]([C@H](O)[C@@H](O)c5ccc(O)cc5)NC(=O)[C@@H]5C[C@@H](O)CN5C(=O)[C@H]([C@@H](C)O)NC4=O)cc3)cc2)cc1,Candida glabrata,CLSI broth microdilution,5592,,0.06
CC[C@H]1OC(=O)[C@H](C)[C@@H](O[C@H]2C[C@@](C)(OC)[C@@H](O)[C@H](C)O2)[C@H](C)[C@@H](O[C@@H]2O[C@H](C)C[C@H](N(C)C)[C@H]2O)[C@](C)(O)C[C@@H](C)CN(C)[C@H](C)[C@@H](O)[C@]1(C)O,Neisseria gonorrhoeae,broth microdilution,WHO G,1.5 h,0.0625
OC(Cn1cncn1)(Cn1cncn1)c1ccc(F)cc1F,Candidozyma auris,inhibitor,278,24 h,128
O=[N+]([O-])c1ccc2[nH]c(CNCC34CC5CC(CC(C5)C3)C4)nc2c1,Enterobacter aerogenes,,ATCC 35029,,> 128
CC1(C)S[C@@H]2[C@H](NC(=O)Cc3ccccc3)C(=O)N2[C@H]1C(=O)O,Neisseria gonorrhoeae,broth microdilution,WHO O,1.5 h,64
CC1(C)S[C@@H]2[C@H](NC(=O)[C@H](N)c3ccccc3)C(=O)N2[C@H]1C(=O)O,Pseudomonas aeruginosa,,clinical isolate RKI-No_612/16,,> 16
CC1NC(=O)C(C(=O)NC(C(=O)NC2C(=O)N3C2SC(C)(C)C3C(=O)O)c2ccccc2)=C1O (stereo not drawn),Escherichia coli,broth microdilution,ATCC 25922 wild type,no clavulanic acid,25
CN[C@H](CC(C)C)C(=O)N[C@H]1C(=O)N[C@@H](CC(N)=O)C(=O)N[C@H]2C(=O)N[C@H]3C(=O)N[C@H](C(=O)N[C@H](C(=O)O)c4cc(O)cc(O)c4-c4cc3ccc4O)[C@H](O)c3ccc(c(Cl)c3)Oc3cc2cc(c3O[C@@H]2O[C@H](CO)[C@@H](O)[C@H](O)[C@H]2O[C@H]2C[C@](C)(N)[C@H](O)[C@H](C)O2)Oc2ccc(cc2Cl)[C@H]1O,Staphylococcus epidermidis,,"MRSE-8, methicillin-resistant",,0.5

# Excerpt of the above:
SMILES,organism,assay,system,setting,MIC [mg/L]
OC(Cn1cncn1)(Cn1cncn1)c1ccc(F)cc1F,Candidozyma auris,inhibitor,278,24 h,128
